# Measured values gathered from unrelated publications.
# Protocols differ between the studies behind these lines. Values joined by “and” are separate records of one study, mostly repeats; a detail may differ. ± marks the error that the study gave. The star is where a group is joined.
# Gnao1: Gnao1, AlexaFluor 532 label (Rattus norvegicus, UniProt P59215)
# SLBP: SLBP, phosphorylated, multiple sites (Homo sapiens, UniProt Q14493)
# B1: RGS8 GST fusion (UniProt P49804); sequence looked up; chain MAALLMPRRNKGMRTRLGCLSHKSDSCSDFTAILPDKPNRALKRLSTEEATRWADSFDVLLSHKYGVAAFRAFLKTEFSEENLEFWLACEEFKKTRSTAKLVTKAHRIFEEFVDVQAPREVNIDFQTREATRKNMQEPSLTCFDQAQGKVHSLMEKDSYPRFLRSKMYLDLLSQSQRRLS
# B2: MIF4GD H44A (Homo sapiens, UniProt A9UHW6); sequence looked up; chain MGEPSREEYKIQSFDAETQQLLKTALKDPGAVDLEKVANVIVDASLQDCVFSKEAGRMCYAIIQAESKQAGQSVFRRGLLNRLQQEYQAREQLRARSLQGWVCYVTFICNIFDYLRVNNMPMMALVNPVYDCLFRLAQPDSLSKEEEVDCLVLQLHRVGEQLEKMNGQRMDELFVLIRDGFLLPTGLSSLAQLLLLEIIEFRAAGWKTTPAAHKYYYSEVSD
# B3: UGT1A9 (Homo sapiens, UniProt O60656); chain GKLLVVPMDGSHWFTMRSVVEKLILRGHEVVVVMPEVSWQLGRSLNCTVKTYSTSYTLEDLDREFKAFAHAQWKAQVRSIYSLLMGSYNDIFDLFFSNCRSLFKDKKLVEYLKESSFDAVFLDPFDNCGLIVAKYFSLPSVVFARGILCHYLEEGAQCPAPLSYVPRILLGFSDAMTFKERVRNHIMHLEEHLLCHRFFKNALEIASEILQTPVTEYDLYSHTSIWLLRTDFVLDYPKPVMPNMIFIGGINCHQGKPLPMEFEAYINASGEHGIVVFSLGSMVSEIPEKKAMAIADALGKIPQTVLWRYTGTRPSNLANNTILVKWLPQNDLLGHPMTRAFITHAGSHGVYESICNGVPMVMMPLFGDQMDNAKRMETKGAGVTLNVLEMTSEDLENALKAVINDKSYKENIMRLSSLHKDRPVEPLDLAVFWVEFVMRHKGAPHLRPAAHDLTWYQYHSLDVIGFLLAVVLTVAFITFKCCAYGYRKCLGKKGRVKKAHKSKTH
# B4: MYH7 short S1 short S1 1-808 (Homo sapiens, UniProt P12883); Cy5 label on cysteines; sequence looked up; chain MGDSEMAVFGAAAPYLRKSEKERLEAQTRPFDLKKDVFVPDDKQEFVKAKIVSREGGKVTAETEYGKTVTVKEDQVMQQNPPKFDKIEDMAMLTFLHEPAVLYNLKDRYGSWMIYTYSGLFCVTVNPYKWLPVYTPEVVAAYRGKKRSEAPPHIFSISDNAYQYMLTDRENQSILITGESGAGKTVNTKRVIQYFAVIAAIGDRSKKDQSPGKGTLEDQIIQANPALEAFGNAKTVRNDNSSRFGKFIRIHFGATGKLASADIETYLLEKSRVIFQLKAERDYHIFYQILSNKKPELLDMLLITNNPYDYAFISQGETTVASIDDAEELMATDNAFDVLGFTSEEKNSMYKLTGAIMHFGNMKFKLKQREEQAEPDGTEEADKSAYLMGLNSADLLKGLCHPRVKVGNEYVTKGQNVQQVIYATGALAKAVYERMFNWMVTRINATLETKQPRQYFIGVLDIAGFEIFDFNSFEQLCINFTNEKLQQFFNHHMFVLEQEEYKKEGIEWTFIDFGMDLQACIDLIEKPMGIMSILEEECMFPKATDMTFKAKLFDNHLGKSANFQKPRNIKGKPEAHFSLIHYAGIVDYNIIGWLQKNKDPLNETVVGLYQKSSLKLLSTLFANYAGADAPIEKGKGKAKKGSSFQTVSALHRENLNKLMTNLRSTHPHFVRCIIPNETKSPGVMDNPLVMHQLRCNGVLEGIRICRKGFPNRILYGDFRQRYRILNPAAIPEGQFIDSRKGAEKLLSSLDIDHNQYKFGHTKVFFKAGLLGLLEEMRDERLSRIITRIQAQSRGVLARMEYKKLLERR
# B5: MIF4GD R76A (Homo sapiens, UniProt A9UHW6); sequence looked up; chain MGEPSREEYKIQSFDAETQQLLKTALKDPGAVDLEKVANVIVDHSLQDCVFSKEAGRMCYAIIQAESKQAGQSVFARGLLNRLQQEYQAREQLRARSLQGWVCYVTFICNIFDYLRVNNMPMMALVNPVYDCLFRLAQPDSLSKEEEVDCLVLQLHRVGEQLEKMNGQRMDELFVLIRDGFLLPTGLSSLAQLLLLEIIEFRAAGWKTTPAAHKYYYSEVSD
# B6: merA 1-69 (Serratia marcescens, UniProt P08662); sequence looked up; chain MTHLKITGMTCDSCAAHVKEALEKVPGVQSAIVSYAKGAAQLALDPGTAPDALTAAVAGLGYKAMLADA
# B7: Sas-4 606-901 (Drosophila melanogaster, UniProt Q9VI72); sequence looked up; chain RNIARLAPKVLPSATMSDILDENGRRTQSLDGTAGKPAKQREAQNRRQSSGSAQVRSRSRSLSRNKKTPYALDESYASSSSVESEEVQPPVTAPKAATPPPAANSSSDFKREITNADGSKDIWYPNGNLKKISADGMNLRMLYFNKDIKETNIREGTVKYYYAETNTWHTSYLDGLEILEFPNGQTEHRRKDGTVEIHFPNNSIKIVDPSDTEKLEEWRYADGTHLVQLRNGDKILNLPNGQKEIHTKLNKRREYPDGTVKLVYPDGSQETRYSNGRVRLKDKDGKLIMDTDYAKY
# B8: ftsZ (Bacillus subtilis, UniProt P17865); sequence looked up; chain MLEFETNIDGLASIKVIGVGGGGNNAVNRMIENEVQGVEYIAVNTDAQALNLSKAEVKMQIGAKLTRGLGAGANPEVGKKAAEESKEQIEEALKGADMVFVTAGMGGGTGTGAAPVIAQIAKDLGALTVGVVTRPFTFEGRKRQLQAAGGISAMKEAVDTLIVIPNDRILEIVDKNTPMLEAFREADNVLRQGVQGISDLIATPGLINLDFADVKTIMSNKGSALMGIGIATGENRAAEAAKKAISSPLLEAAIDGAQGVLMNITGGTNLSLYEVQEAADIVASASDQDVNMIFGSVINENLKDEIVVTVIATGFIEQEKDVTKPQRPSLNQSIKTHNQSVPKREPKREEPQQQNTVSRHTSQPADDTLDIPTFLRNRNKRG
# B9: RGS7 RH domain 333-448 (UniProt P49802); sequence looked up; chain GMDEALKDPVGREQFLKFLESEFSSENLRFWLAVEDLKKRPIKEVPSRVQEIWQEFLAPGAPSAINLDSKSYDKTTQNVKEPGRYTFEDAQEHIYKLMKSDSYPRFIRSSAYQELL
# B10: LEMD3 755-911 (Homo sapiens, UniProt Q9Y2U8); sequence looked up; chain DKILVIPSKVWQGQAFHLDRRNSPPNSLTPCLKIRNMFDPVMEIGDQWHLAIQEAILEKCSDNDGIVHIAVDKNSREGCVYVKCLSPEYAGKAFKALHGSWFDGKLVTVKYLRLDRYHHRFPQALTSNTPLKPSNKHMNSMSHLRLRTGLTNSQGSS
# B11: CSF1 33-496 (Homo sapiens, UniProt P09603); sequence looked up; chain EEVSEYCSHMIGSGHLQSLQRLIDSQMETSCQITFEFVDQEQLKDPVCYLKKAFLLVQDIMEDTMRFRDNTPNAIAIVQLQELSLRLKSCFTKDYEEHDKACVRTFYETPLQLLEKVKNVFNETKNLLDKDWNIFSKNCNNSFAECSSQDVVTKPDCNCLYPKAIPSSDPASVSPHQPLAPSMAPVAGLTWEDSEGTEGSSLLPGEQPLHTVDPGSAKQRPPRSTCQSFEPPETPVVKDSTIGGSPQPRPSVGAFNPGMEDILDSAMGTNWVPEEASGEASEIPVPQGTELSPSRPGGGSMQTEPARPSNFLSASSPLPASAKGQQPADVTGTALPRVGPVRPTGQDWNHTPQKTDHPSALLRDPPEPGSPRISSLRPQGLSNPSTLSAQPQLSRSHSSGSVLPLGELEGRRSTRDRRSPAEPEGGPASEGAARPLPRFNSVPLTDTGHERQSEGSFSPQLQES
# B12: RAVER1 59-130 (Homo sapiens, UniProt Q8IY67); sequence looked up; chain RKILIRGLPGDVTNQEVHDLLSDYELKYCFVDKYKGTAFVTLLNGEQAEAAINAFHQSRLRERELSVQLQPT
Molecule,target or system,assay,test system,conditions,measurement,result
B1 (RGS8 GST fusion),Gnao1,flow cytometry,,added: GDP-AlF4-,Kd,0.023 µM
B2 (MIF4GD H44A),SLBP,SPR,,"pH 7.4, 25 °C, NaCl 150 mM",Kd,15.6 ± 5.4 µM
B3 (UGT1A9),COc1c(C)c2c(c(O)c1C/C=C(\C)CCC(=O)O)C(=O)OC2,steady-state kinetics,,"pH 7.4, 37 °C",Vmax/Km,91 µL/min/mg
"CDKN1A/WRN p21 peptide with WRN PIP-box, C-terminal amide (Homo sapiens)","PCNA (Homo sapiens, UniProt P12004)",SPR,,,Kd,1.15 µM
"{TAMRA}-QINQVRPKLPLLKILHAAGAQ-NH2 (MDM4 residues 23-43 (Homo sapiens); SMILES CC[C@H](C)[C@H](NC(=O)[C@H](CCC(N)=O)NC(=O)c1ccc(-c2c3ccc(=[N+](C)C)cc-3oc3cc(N(C)C)ccc23)c(C(=O)[O-])c1)C(=O)N[C@@H](CC(N)=O)C(=O)N[C@@H](CCC(N)=O)C(=O)N[C@H](C(=O)N[C@@H](CCCNC(=N)N)C(=O)N1CCC[C@H]1C(=O)N[C@@H](CCCCN)C(=O)N[C@@H](CC(C)C)C(=O)N1CCC[C@H]1C(=O)N[C@@H](CC(C)C)C(=O)N[C@@H](CC(C)C)C(=O)N[C@@H](CCCCN)C(=O)N[C@H](C(=O)N[C@@H](CC(C)C)C(=O)N[C@@H](Cc1c[nH]cn1)C(=O)N[C@@H](C)C(=O)N[C@@H](C)C(=O)NCC(=O)N[C@@H](C)C(=O)N[C@@H](CCC(N)=O)C(N)=O)[C@@H](C)CC)C(C)C; N-terminal TAMRA; C-terminal amide; TAMRA = 5-carboxytetramethylrhodamine, CN(C)c1ccc2c(-c3ccc(C(=O)*)cc3C(=O)[O-])c3ccc(=[N+](C)C)cc-3oc2c1)","S100b (Rattus norvegicus, UniProt P04631)",fluorescence polarisation,peptide,"37 °C, added: CaCl2 10 mM",Kd,0.00308 ± 0.00039 µM
anti-CD45 clone #4/nivolumab diabody bispecific diabody,"PTPRC 26-577 (Homo sapiens, UniProt P08575)",SPR,,"25 °C, equilibrium",Kd,0.75 µM
"acpP, triclosan-pantetheine probe on Ser (Escherichia coli, UniProt P0A6A8)","fabI 1-262 (Escherichia coli, UniProt P0AEK4)",ITC,,,Kd,0.7119 ± 0.0013 µM
B4 (MYH7 short S1 short S1 1-808),"MYBPC3, PKA phosphorylated (Homo sapiens, UniProt Q14896)",MST,,"pH 7.5, 23 °C, apparent, added: ADP 500 µM",Kd,37 ± 2 µM
OppA (Lactococcus lactis),"bradykinin mature, N-terminal sulforhodamine 101",FP,,,Kd,45 µM
B5 (MIF4GD R76A),SLBP,SPR,,"pH 7.4, 25 °C, NaCl 150 mM",Kd,3.02 ± 2.2 µM
"F8 (Homo sapiens, UniProt P00451)",beta2-glycoprotein I/3B7 antibody (Homo sapiens/Mus musculus),ELISA,,,Kd,0.0027 µM
EDGGSFWYGAMKAAYG (designed peptide),"CIB1 (Homo sapiens, UniProt Q99828)",ITC,peptide,"25 °C, added: CaCl2 0.1 mM",Kd,2.81 µM
B6 (merA 1-69),"MerB 1-212, Hg(II) bound Cys96/Cys159 (Serratia marcescens, UniProt P77072)",stopped-flow fluorescence,,,Kd,195 µM
B7 (Sas-4 606-901),"ana2, Plk4 phosphorylated (Drosophila melanogaster, UniProt Q9XZ31)",BLI,,"approximate, prephosphorylated, single experiment",Kd,0.007 µM
"DGGTMENLSRRLQVTGDLFDIMSGQT (BECN1 105-130 K117Q (Homo sapiens, UniProt Q14457); sequence looked up)","BCL2 1-218 (Homo sapiens, UniProt P10415)",ITC,peptide,"pH 7.5, 25 °C, NaCl 150 mM, independent binding model",Kd,24.5 ± 6 µM
B8 (ftsZ),"UgtP F112A/V117A/E306A/N309A (Bacillus subtilis, UniProt P54166)",BLI,,"pH 8.0, 30 °C, NaCl 100 mM, without UDP-glc",Kd,0.016 µM
ANK2 fragment (Homo sapiens),"SCN2A 1080-1203 E1111A, CK2 phosphorylated (UniProt P04775)",SPR,,"pH 7.4, 25 °C, NaCl 150 mM",Kd,0.024 µM
"PGYPNGLLSGDEDFSSIADMDFSALLSQISS (RELA 521-551 L523Y (Homo sapiens, UniProt Q04206); sequence looked up)","GTF2H1 1-108 (Homo sapiens, UniProt P32780)",ITC,peptide,"pH 7.4, 25 °C",Kd,23 ± 4 µM
"SKTRGNAKVTGRWK (TNNT2 275-288 K280N (Homo sapiens, UniProt P45379-6); sequence looked up)","TPM1 (Oryctolagus cuniculus, UniProt P58772)",SPR,peptide,"pH 7.0, KCl 0.1 M",Kd,5.29 µM
"dinB (Escherichia coli, UniProt Q47155)","dnaN 1-366 148-152 to poly-Ala (Escherichia coli, UniProt P0A988)",SPR,,"pH 7.4, NaCl 150 mM",Kd,0.68 µM
B9 (RGS7 RH domain 333-448),Gnao1,flow cytometry,,"pH 8.0, added: GDP-AlF4-",Kd,0.072 µM
B10 (LEMD3 755-911),"SMAD2 186-467 S-to-E phosphomimetic (Homo sapiens, UniProt Q15796)",ITC,,20 °C,Kd,1.4 µM and 1.27 µM
B11 (CSF1 33-496),"CSF1R Fc fusion D1-D5 20-512 (Homo sapiens, UniProt P07333)",SPR,,"pH 7.4, NaCl 0.15 M",Kd,0.0038 µM
B12 (RAVER1 59-130),"VCL 879-1066 (Homo sapiens, UniProt P18206-2)",ITC,,"pH 8, 23 °C, NaCl 150 mM",Kd,22.1 µM
